# Measured values from different studies.
# Numbered parts are unrelated; each lists some results of a single study.

# Series 1 — technique: RNA Bind-n-Seq; molecule type: RNA; sample: in vitro; concentration: 365 nM; baseline: no-protein control; reading: higher = stronger binding
# Target: RNA binding protein fox-1 homolog 2, RRM domain, GST-SBP tag (RBFOX2, Homo sapiens, UniProt O43251-10, residues 100-194)
# Notes: natural RNA segment, single round, ends assumed
# Construct (chain): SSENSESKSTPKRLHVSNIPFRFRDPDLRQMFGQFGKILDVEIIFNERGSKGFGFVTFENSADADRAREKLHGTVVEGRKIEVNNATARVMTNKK
Oligonucleotide,RBNS enrichment (R)
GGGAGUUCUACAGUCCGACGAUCAGAAAUCCACAUGCUUCAGAAUUCAGAGGGUUCAGGGAAUGGUUUCGGAUAGUAGGCUCUCCCUGCUCCCUUCUCUACAGGAAUCUCUGGAAAACUAUCAGAAGACAAAGUGGAAUUCUCGGGUGCCAA,0.314
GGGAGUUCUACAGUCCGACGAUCAGAGGUCAGCCGUGUCUGCCCUGGCUCUGUCUCCUCUGUGACAGGGCAGAGCAUUUCUGGUCAGUUUCUCCAUGGUGCCUCCCACCCCUUUGUAAAGUGGAUGGACAUGAUGGAAUUCUCGGGUGCCAA,0.307
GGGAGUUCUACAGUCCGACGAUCGGUUCAGACCCGGGCAGCUCAGCUACCUCCUUCUACAUGGAGGUGGCCCUGGUCCCACCUCUAAUCCCUACUGUCAUCAGGCACUACAGCCCAAAAAGAGGUGCUUGUGAUGGAAUUCUCGGGUGCCAA,0.246
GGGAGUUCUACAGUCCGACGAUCGCCAUGGCCUGCACCGUGGCGGUGGAAGAGAGCAUAGCACAUCACUACAACAACCAGAUCAGGACGCUGAUGGAGGAGGACCCUGAAAAAUACGAGGAACUUCUUCAGGUUGGAAUUCUCGGGUGCCAA,0.228
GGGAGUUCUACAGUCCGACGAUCCUGCUCAGAGUGCCUCUGGUUUCUUUUCAAAUUGUGGGGGGAAGGAUUAAAAACUUCAAAUGAUGGAAAAAGAGAUCUCUUGUGAAACGAAACGCCCCGUGUUAAUAACUUGGAAUUCUCGGGUGCCAA,0.843
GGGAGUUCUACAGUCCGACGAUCUAAAGAUCAGACAUCUCCAAAAACAGAAAAAGUACAAGUAAACAACACACUUUCUCAUGACUUUUAAGAACUGUAGUAAUGUGGCUUAGGAAAUAUAAUGGCCUAAUUGUUGGAAUUCUCGGGUGCCAA,0.569
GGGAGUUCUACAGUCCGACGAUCUCACGUUUUGCAGAAAACACCGUAAGAAACACUUCAGUCUUUCUGUAGUUUCCAUGCAUAUUUCACCAUGGUUCGCACUCUGAUCCUCAUCUGGUUUAGAAAGCAAUUCAUGGAAUUCUCGGGUGCCAA,0.971
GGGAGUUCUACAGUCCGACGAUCCUCAAAGUGUGGCCAACUCCCAUUUACUUAGAGGCUGAUUAUCUAGUUUUGUAGUUCCUCAGGCCUCUAAUUUAUUUUUUGCUUUCUGCUUUAUUGAUCUUUUGCAUGUCUGGAAUUCUCGGGUGCCAA,18.1
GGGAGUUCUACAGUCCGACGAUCGCUUCAUUGCCAUGUUCUGUGGGUGUUUGGCAGGUUACCGAUGGGGAAGAUUCUUGUCACAGAAUCAGCAAUACCAUAGUUUUUCUACAUGUGCUCAGCUGGGGGUGUGGUGGAAUUCUCGGGUGCCAA,0.613
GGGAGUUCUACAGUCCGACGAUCCCAGCCUCUGUGACAGUGACUCCCUCUCCCCUUGUACAUACUCUCACACAGGUUCCCCUUGUACAUACAUGCACAUACACACCCAAACACACAUAGAGGACUCUGGAGCCUGGAAUUCUCGGGUGCCAA,1.31
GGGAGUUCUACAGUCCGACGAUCACUGGGCAUGUUUUGCUGGUGUGGUCUCUGCACUUCAGGAAUGGUCACAACAGGGGGUAGCCCUCAAAAGCACUCCUUUUUCUAUACCUCUUCUCAAGGCCAUGUAAGUUUGGAAUUCUCGGGUGCCAA,0.318
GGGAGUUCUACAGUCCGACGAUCCUACAGACAUAGCAUUUUUUCAGAGAUGGAAAAUGGCCAUUAGAGUCACUUUCCAUAUUAUACCCUCUAUAAAGUUGUCGAAUUGGAUGGGAGUUCUUUCUAACUAGCCAUGGAAUUCUCGGGUGCCAA,0.788

# Series 2 — technique: protein binding microarray; molecule type: double-stranded DNA, one strand shown; sample: in vitro; concentration: not given; baseline: not given; reading: higher = stronger binding
# Target: Histone acetyltransferase KAT6A, winged helix 1, GST fusion (KAT6A, Homo sapiens, UniProt Q92794, residues 1-85)
# Notes: 8-mer, flanks averaged, mean of 2 arrays, mostly near background
# Target sequence (chain): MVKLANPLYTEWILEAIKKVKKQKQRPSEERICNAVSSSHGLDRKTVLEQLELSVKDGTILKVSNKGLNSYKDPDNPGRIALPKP
Oligonucleotide,E-score
CAATCAGA,-0.182
TGGGCAAA,-0.28
AGTCTGAA,-0.139
CTATAAGC,0.0769
CAGGAGGA,-0.228
ACACGAGA,-0.115
GGTGACGA,-0.182
GCAGCCTA,-0.163
AATGCATG,-0.188
ATAGGCAT,-0.0244
AGACATAT,-0.0162
AACGGCAT,0.352
ACGCACGA,0.116
AGACCAGA,-0.25
AAAACCCG,0.265
AGTATATG,-0.156
ACTACATG,-0.0632
CCATGAGA,-0.124
TGGGGGAA,-0.0795
GGGGCTGA,-0.00114
AATAGTGC,0.17
ATTACTCC,-0.122
CATGTTAC,0.0214
ACACCTTG,-0.193

# Series 3 — technique: protein-binding microarray; molecule type: double-stranded DNA, one strand shown; sample: in vitro; concentration: 2200 nM top; notes: 60-bp whole probe; together with: salmon DNA 0.4 mg/ml; baseline: random background probes; reading: higher = stronger binding; constant ends, left off below: GCCTAGCAC … GTCTTGATTCGCTTGACGCTGCTG
# Target: Interferon regulatory factor 7, full length, phosphomimetic (IRF7, Homo sapiens, UniProt Q92985, residues 1-503, S471D/S472D/S475D/S476D/S477D/S483D/S484D/S487D)
# Residues (chain): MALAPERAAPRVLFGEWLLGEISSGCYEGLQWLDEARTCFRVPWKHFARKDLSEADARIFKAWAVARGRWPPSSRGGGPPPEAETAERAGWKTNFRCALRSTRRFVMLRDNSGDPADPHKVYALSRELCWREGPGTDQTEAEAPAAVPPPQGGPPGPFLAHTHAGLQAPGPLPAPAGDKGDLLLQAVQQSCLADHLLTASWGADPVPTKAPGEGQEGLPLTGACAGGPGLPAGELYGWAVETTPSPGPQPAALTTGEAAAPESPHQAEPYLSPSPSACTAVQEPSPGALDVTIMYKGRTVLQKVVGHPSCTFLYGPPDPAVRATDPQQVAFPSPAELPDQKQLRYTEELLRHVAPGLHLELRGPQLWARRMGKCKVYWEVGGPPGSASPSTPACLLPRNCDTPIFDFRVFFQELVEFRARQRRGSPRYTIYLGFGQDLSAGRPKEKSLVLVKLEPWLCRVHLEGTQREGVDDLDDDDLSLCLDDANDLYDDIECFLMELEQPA
Oligonucleotide,fitted relative affinity [z-score]
TAAGGTATCGGTTTCGGTTAGTGCTAG,7.13
TCATTTGACTCTTTCTGACTGTGCTAG,1.75
CACGGTTTCGACTATCGGGACGTGCTA,3.91
TTAGATATCAGGCTCGATTAGTGCTAG,-0.121
TCATCTTTCACTGCTCCAACTGTGCTA,2.34
GACGAACAGGGGTATCGAGACGTGCTA,-0.00881
GACGGACTGGGGACTGGAGACGTGCTA,-0.838
GACGGTATCGAGACTGGGGACGTGCTA,-0.359
TTAGGTTTCCTTATCCGTTAGTGCTAG,1.96
TCAATTATTGTTTCCTTACTGTGCTAG,1.39
TTAGGTTTCGGGTTTCGGCTAGTGCTA,8.83
GACGGACTGCTTATCCAGACGTGCTAG,0.116
CTGCATTACAGCTATTTTTAGGTGCTA,0.721
GACGGACTGCTTATCATGACGTGCTAG,0.119
GACTATATCGGGACTGGAGACGTGCTA,-0.125
ATCATTTTTGCTTACGATGCGTGCTAG,1.81
TTAAATTTCGGGTTTCGATTAGTGCTA,6.89

# Series 4 — technique: RNA Bind-n-Seq; molecule type: RNA; sample: in vitro; concentration: not given; baseline: input RNA pool; reading: higher = stronger binding
# Target: RING finger protein unkempt homolog, zinc fingers 1-6, GST-SBP tag (UNK, Homo sapiens, UniProt Q9C0B0, residues 30-357)
# Notes: RNA with constant flanks, human-mouse chimeric sites, ends assumed
# Residues (chain): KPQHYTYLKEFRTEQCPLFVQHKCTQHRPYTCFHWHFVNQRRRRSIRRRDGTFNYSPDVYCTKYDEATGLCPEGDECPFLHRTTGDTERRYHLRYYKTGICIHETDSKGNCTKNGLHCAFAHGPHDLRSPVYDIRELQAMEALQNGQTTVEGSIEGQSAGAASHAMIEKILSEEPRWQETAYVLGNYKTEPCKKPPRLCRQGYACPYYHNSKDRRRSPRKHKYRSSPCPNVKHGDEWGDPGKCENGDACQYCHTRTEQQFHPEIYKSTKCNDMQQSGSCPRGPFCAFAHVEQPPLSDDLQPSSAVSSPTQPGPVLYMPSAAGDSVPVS
Oligonucleotide,bound/input enrichment
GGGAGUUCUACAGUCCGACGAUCUCUGGUCACACUCGUGUGUAUGGUGUUUGCUUUGUGGACACUUCACUGGGCAAGUUUUUCAUAGGUCAGUUUUCGGAUGACCGCCACUGUUCCAGAUUUAGGACGCUAGUGGCUCACUAUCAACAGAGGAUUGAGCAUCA,0.283 ratio
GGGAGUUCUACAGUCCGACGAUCUGUAGUUUCUUGAUUUAUCAUUUUUCUCUUUUCUUUCUUUCCUUUAGGAAAAGCCUAAAGAUUAGGUUGUAAGAAAAACAGAAGCCAGCCAUGUUUCGAAGACCUGUCAGGUAUUUCGUCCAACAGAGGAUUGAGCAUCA,0.222 ratio
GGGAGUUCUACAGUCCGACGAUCACACAAUAUGAGACCAACAGCAUGGACUUCAAAGUCGGGGCAGAUGGGACAGUCUUCGCCACCCGGGAGCUGCAGGUCCCCUCCGAGCAGGUGGCGUUCACGGUGACUGCAUGGGACAGCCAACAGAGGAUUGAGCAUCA,0.247 ratio
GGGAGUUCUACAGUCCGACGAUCUUACCCGAGAACGAGGAUGAGCUGGAGAGCACCAACAGACGCUAUACCAAGAGGGACUGCAGCACUUUUCUCAGAACUAGUGAGACGGGCAUCGUGGACCAGGUCAUGGUCACUCUCAACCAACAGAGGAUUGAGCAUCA,0.163 ratio
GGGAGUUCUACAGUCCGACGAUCAACAUUUUUGUCAGGAUUUAUGUUCCUGUGAAACAAGUGAACACUCUGAUACACUUCAUCUGCUUGUACAUCUGUAUGAUAGAGAAAUGUAAAUAUGUUAAUCCAAGCAAUGUGUCACUUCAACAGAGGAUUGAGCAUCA,0.212 ratio
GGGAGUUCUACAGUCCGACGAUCGUGCCCUUCUCGCUGCUGCGGAGCCCGCCCAGCUGGGCAUUCCGGGACUGGUACCCUGCACACAGCCGCCUCUUCGAUCAAGCUUUCGGGGUGCCCCGGUUGCCCGAUGAGUGGUCGCAGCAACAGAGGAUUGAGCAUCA,0.0639 ratio
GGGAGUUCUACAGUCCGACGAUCCUGGCCUGGCCCUCCCCAGGGGCCUCCUUUCGUAUAGUCACUGCUUCUGCAUCAGAUACUUUCAGCUGCAACUCCCUACUGGGUGGGGCACCUAUCUCAGGCAGAAGUUGGUGCCCCCCUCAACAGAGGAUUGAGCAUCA,0.145 ratio
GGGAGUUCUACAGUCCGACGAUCAUGGAGAAGGAUUCUCUGCCCCGCUUUGUGCGCUCUGAAUUUUAUAAGGAGCUAAUCAAGUAGUCAUUUAGCCAGGCUUCCAAAAGUUGCCCUGUGAGUUGAGUUACAUCCUUUGUAGCACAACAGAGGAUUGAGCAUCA,1.18 ratio
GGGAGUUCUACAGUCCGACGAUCAAUUUCCGCAACUGUUUUUUAGACAUUCACAUCAGACUUACAGAGCACCUGGCCACAUUCUAGGUUUGUGUUAUUUCUCAGCUAUGGAUAUGAUCAAAUGAGAACACUGGCAGCCAGAUGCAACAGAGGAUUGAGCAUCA,0.94 ratio
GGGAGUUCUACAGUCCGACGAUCUUCAAAGGCUGUGUUAUCUGUGUCAUUUCAUAAGUAACUCUGGGGGAGGGAAAUUCUGUUCUUUUGUUUAAUUUUCCCCCAAAUGAAGCCAAAGUGUUUUUUAAGGAACUGAGAAAAAAUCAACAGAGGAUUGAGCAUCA,0.169 ratio
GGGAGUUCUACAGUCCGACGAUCACCUCCCCCUCCCGCCUCACCCCACCCAAGAAAGAAAGAAAGUUUUUGGCGUUUCUUUUUUUUAGAAAUACAAAGUGAUUACAGUUUCCCCCGCAAGGGUCUAUCGAAGGGCUUGACGGACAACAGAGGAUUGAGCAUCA,0.881 ratio

# For quick reference, copied from above (series 2):
Oligonucleotide,E-score
AGTATATG,-0.156
ACTACATG,-0.0632
CCATGAGA,-0.124
TGGGGGAA,-0.0795
GGGGCTGA,-0.00114
